# Assay results gathered from unrelated publications.
# Numbered parts are unrelated; each lists some results of a single study.
# Chain of UniProt P42685 (whole entry, looked up): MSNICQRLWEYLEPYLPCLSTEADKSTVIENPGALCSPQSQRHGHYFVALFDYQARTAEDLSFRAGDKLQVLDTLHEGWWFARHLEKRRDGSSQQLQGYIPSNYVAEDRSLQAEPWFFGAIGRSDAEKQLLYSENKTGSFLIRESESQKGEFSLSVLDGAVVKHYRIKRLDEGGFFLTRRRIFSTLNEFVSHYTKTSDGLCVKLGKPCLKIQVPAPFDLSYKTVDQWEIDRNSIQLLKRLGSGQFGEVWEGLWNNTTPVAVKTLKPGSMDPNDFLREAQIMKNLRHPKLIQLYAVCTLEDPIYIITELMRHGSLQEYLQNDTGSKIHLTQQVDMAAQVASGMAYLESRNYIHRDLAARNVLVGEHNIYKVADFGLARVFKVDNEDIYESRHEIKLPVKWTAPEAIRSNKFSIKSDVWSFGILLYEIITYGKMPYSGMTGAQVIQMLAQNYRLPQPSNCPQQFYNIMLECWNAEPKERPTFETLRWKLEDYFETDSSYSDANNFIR
# Chain of UniProt P42336 (whole entry, unmodified, looked up): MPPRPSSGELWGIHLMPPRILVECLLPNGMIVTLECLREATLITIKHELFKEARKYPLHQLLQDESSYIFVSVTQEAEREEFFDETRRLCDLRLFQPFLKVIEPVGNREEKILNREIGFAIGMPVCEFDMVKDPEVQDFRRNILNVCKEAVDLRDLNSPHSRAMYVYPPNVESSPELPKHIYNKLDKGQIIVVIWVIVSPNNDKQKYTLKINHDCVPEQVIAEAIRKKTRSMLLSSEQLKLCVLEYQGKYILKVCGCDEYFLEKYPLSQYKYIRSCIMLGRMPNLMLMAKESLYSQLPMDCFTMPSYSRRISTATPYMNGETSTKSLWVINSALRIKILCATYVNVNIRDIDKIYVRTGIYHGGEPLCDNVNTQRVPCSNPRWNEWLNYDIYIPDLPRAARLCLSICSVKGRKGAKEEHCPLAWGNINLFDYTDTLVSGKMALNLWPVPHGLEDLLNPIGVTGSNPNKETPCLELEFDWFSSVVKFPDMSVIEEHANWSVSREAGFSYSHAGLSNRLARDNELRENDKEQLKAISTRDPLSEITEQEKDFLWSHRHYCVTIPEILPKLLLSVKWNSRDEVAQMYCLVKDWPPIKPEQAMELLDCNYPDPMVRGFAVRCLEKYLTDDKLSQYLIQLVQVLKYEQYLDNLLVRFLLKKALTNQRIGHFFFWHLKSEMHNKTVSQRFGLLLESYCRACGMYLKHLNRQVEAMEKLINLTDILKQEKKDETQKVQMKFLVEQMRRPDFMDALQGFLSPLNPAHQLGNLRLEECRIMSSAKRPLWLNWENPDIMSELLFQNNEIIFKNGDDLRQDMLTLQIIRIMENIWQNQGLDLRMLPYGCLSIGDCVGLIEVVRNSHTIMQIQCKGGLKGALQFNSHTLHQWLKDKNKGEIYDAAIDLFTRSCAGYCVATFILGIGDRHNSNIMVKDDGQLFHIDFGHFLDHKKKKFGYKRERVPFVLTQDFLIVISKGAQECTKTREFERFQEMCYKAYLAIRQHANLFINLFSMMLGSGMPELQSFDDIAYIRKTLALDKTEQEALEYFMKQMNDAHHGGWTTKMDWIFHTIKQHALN
# Chain of UniProt O14920 (whole entry, looked up): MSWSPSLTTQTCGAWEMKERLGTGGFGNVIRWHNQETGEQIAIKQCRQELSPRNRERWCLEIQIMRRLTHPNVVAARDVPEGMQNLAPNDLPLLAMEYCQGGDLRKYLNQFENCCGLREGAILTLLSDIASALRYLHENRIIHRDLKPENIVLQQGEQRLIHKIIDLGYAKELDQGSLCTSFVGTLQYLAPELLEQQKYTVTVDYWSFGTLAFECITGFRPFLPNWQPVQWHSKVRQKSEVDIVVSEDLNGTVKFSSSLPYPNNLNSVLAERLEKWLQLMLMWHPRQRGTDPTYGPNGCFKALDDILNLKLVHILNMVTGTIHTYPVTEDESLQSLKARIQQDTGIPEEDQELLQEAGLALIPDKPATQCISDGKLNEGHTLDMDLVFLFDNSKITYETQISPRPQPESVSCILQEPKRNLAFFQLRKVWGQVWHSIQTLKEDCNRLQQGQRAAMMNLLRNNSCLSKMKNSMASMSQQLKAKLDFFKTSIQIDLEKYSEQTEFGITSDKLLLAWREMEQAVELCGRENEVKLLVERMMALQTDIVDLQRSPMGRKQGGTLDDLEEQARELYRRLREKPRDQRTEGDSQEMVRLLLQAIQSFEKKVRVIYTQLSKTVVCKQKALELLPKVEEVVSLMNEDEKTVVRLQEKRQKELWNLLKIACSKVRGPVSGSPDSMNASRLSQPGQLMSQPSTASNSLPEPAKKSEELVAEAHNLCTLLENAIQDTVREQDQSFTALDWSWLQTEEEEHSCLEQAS
# Chain of UniProt Q8IU85 (whole entry, looked up): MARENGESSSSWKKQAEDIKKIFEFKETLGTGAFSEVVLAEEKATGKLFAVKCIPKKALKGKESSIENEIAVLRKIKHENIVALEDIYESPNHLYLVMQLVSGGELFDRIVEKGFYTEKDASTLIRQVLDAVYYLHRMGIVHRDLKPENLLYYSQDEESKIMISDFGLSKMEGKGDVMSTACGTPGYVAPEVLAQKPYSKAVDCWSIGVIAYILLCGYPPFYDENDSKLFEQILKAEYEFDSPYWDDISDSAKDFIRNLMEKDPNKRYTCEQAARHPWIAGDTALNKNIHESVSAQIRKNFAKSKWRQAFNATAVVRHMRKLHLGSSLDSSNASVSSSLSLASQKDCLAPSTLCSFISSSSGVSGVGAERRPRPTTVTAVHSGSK
# Chain of UniProt Q04759 (whole entry, looked up): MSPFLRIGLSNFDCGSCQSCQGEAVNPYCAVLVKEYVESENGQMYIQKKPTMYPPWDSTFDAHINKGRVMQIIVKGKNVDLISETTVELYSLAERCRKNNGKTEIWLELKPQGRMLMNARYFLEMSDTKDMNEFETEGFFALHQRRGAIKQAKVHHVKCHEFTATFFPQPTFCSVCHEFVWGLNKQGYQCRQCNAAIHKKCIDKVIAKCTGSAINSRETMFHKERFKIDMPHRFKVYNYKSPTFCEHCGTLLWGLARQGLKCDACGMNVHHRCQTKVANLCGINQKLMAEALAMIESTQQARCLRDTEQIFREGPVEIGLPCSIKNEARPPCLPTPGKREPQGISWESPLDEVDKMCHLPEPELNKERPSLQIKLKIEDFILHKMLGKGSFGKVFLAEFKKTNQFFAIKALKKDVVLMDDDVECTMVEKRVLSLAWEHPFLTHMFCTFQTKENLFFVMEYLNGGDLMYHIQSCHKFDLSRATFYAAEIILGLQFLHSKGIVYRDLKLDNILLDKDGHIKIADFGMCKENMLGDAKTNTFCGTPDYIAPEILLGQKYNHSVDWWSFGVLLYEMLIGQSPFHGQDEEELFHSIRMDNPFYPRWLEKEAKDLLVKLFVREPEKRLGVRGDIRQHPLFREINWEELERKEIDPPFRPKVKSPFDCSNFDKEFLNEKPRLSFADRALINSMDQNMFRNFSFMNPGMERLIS
# Chain of UniProt O00444 (whole entry, looked up): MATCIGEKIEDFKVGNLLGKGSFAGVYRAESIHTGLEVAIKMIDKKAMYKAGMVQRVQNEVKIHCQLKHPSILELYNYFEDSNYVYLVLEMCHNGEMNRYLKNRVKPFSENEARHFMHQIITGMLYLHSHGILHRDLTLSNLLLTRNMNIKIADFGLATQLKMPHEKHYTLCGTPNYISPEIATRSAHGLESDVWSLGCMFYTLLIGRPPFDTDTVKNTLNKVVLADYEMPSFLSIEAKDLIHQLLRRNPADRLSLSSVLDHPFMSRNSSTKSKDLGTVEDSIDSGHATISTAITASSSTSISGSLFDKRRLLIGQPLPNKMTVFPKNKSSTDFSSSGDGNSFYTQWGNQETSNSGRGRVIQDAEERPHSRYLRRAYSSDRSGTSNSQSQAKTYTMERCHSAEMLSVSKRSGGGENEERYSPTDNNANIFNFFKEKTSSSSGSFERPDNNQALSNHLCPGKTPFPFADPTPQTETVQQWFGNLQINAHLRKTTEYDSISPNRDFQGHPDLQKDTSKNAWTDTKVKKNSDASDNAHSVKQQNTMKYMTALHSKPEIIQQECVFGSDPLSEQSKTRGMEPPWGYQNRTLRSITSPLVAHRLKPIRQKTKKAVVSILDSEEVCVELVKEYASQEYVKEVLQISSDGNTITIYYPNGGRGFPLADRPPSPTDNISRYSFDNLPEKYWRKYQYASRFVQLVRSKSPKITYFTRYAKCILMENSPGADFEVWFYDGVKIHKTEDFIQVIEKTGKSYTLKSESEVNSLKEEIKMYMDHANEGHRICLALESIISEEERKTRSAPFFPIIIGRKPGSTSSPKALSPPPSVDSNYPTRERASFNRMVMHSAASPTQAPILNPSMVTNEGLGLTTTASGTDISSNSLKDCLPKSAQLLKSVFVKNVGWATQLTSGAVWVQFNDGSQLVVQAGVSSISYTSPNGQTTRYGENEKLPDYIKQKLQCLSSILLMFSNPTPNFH

# Sample 1
# Target: Serine/threonine-protein kinase pim-1 (PIM1, Homo sapiens, UniProt P11309)
# Chain of UniProt P11309 (whole entry, looked up): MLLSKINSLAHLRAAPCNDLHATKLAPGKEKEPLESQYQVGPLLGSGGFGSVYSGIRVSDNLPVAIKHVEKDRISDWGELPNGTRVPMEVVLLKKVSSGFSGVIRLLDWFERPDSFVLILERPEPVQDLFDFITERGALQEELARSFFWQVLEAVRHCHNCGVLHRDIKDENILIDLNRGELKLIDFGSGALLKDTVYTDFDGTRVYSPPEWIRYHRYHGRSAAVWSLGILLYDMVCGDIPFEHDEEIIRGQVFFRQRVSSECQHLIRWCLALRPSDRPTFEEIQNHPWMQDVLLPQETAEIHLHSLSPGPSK
# Observed: enzyme activity
# Mode: inhibitor
# Tested at: 0.5 µM
# Relative to: control
SMILES,remaining activity
c1ccc(-c2cnc(Nc3ccc(OCCN4CCCC4)cc3)s2)cc1,100%
CCN(CC)C(=O)c1ccc(Nc2nc(OCC3CCCCC3)c3[nH]cnc3n2)cc1,95.6%
COc1cc2ncnc(Nc3ccc(O)c(Br)c3)c2cc1OC,75.5%
O=c1cc(-c2cccc3c2Sc2ccccc2S3)oc(N2CCOCC2)c1,77.6%
O=C1C(Cl)=C(N2C(=O)CCC2=O)C(=O)c2ccccc21,100%
COc1cc2ncnc(Nc3cccc(Cl)c3)c2cc1OC,91.5%
CN(C)C[C@H]1CCn2c(c(C3=C(c4cn(C)c5ccccc45)C(=O)NC3=O)c3ccccc32)C1,63.2%
Cc1cc2ncc(-c3ccccc3)nc2cc1C,101%

# Sample 2
# SMILES: CC(C)n1cnc(-c2ccc(F)cc2)c1-c1ncc(C(=O)Nc2ccc(N3CCN(C)CC3)cc2)[nH]1
# Technique: phase 2a clinical trial
# Species: patients with idiopathic pulmonary fibrosis
measured,dose,setting,patients with treatment-emergent adverse events
benign prostatic hyperplasia,60 mg once daily,"Grade 4, maximum intensity",0%
investigations (SOC),30 mg once daily,Grade 2,0%
lumbar vertebral fracture,dose not given,"Grade 2, maximum intensity, all drug arms total",0%
gastro-oesophageal reflux disease,60 mg once daily,Grade 4,0%
electrocardiogram T wave abnormal,60 mg once daily,Grade 3,0%
investigations (SOC),dose not given,"Grade 4, all drug arms total",0%
drug-induced liver injury,60 mg once daily,Grade 3,0%

# Sample 3
# Organism: Sarcocystis neurona
# Observed: parasite growth
# Tested at: 10 µM
Compound,inhibition
Nc1nc(N)c2nc(-c3ccccc3)c(N)nc2n1,-67.2%
CNCCC(Oc1ccc(C(F)(F)F)cc1)c1ccccc1.Cl (centres unmarked),-21.9%
NS(=O)(=O)c1cc(C(=O)O)c(NCc2ccco2)cc1Cl,-23.6%
Cc1nccn1CC1CCc2c(c3ccccc3n2C)C1=O (centres unmarked),-28.5%
COc1ccc(CN2CCN(C(c3ccc(F)cc3)c3ccc(F)cc3)CC2)c(OC)c1OC.Cl.Cl,34.3%
CCCN1CCCC[C@H]1C(=O)Nc1c(C)cccc1C,-21.1%

# Sample 4
# SMILES: CS(=O)(=O)NCC[C@H](NC(=O)c1cncc2c1cnn2-c1ccc(F)cc1)c1ccnc(S(C)(=O)=O)c1
# Technique: competition with immobilised ligand
# Tested at: 1 µM
target,observed,remaining binding [%]
"SLK (Homo sapiens, UniProt Q9H2G2)",cell-free assay,100
"EIF2AK1 (Homo sapiens, UniProt Q9BQI3)",cell-free assay,100
"HIPK4 (Homo sapiens, UniProt Q8NE63)",cell-free assay,100
"PIK3CA (Homo sapiens, UniProt P42336, M1043I)",cell-free assay,95
"IKBKB (Homo sapiens, UniProt O14920)",cell-free assay,89
"ULK1 (Homo sapiens, UniProt O75385)",cell-free assay,100
"FRK (Homo sapiens, UniProt P42685)",cell-free assay,100
"PIP4K2C (Homo sapiens, UniProt Q8TBX8)",cell-free assay,0
"CDKL5 (Homo sapiens, UniProt O76039)",binding,100
"PRKCQ (Homo sapiens, UniProt Q04759)",cell-free assay,100
"COQ8A (Homo sapiens, UniProt Q8NI60)",cell-free assay,95
"MAPK8 (Homo sapiens, UniProt P45983)",cell-free assay,80
"CAMK1D (Homo sapiens, UniProt Q8IU85)",cell-free assay,98
"Mast/stem cell growth factor receptor Kit, autoinhibited (KIT, Homo sapiens, UniProt P10721)",cell-free assay,100
"STK32A (Homo sapiens, UniProt Q8WU08)",binding,74
"WNK1 (Homo sapiens, UniProt Q9H4A3)",cell-free assay,100
"PLK4 (Homo sapiens, UniProt O00444)",cell-free assay,89
